Results from different studies.
Each line is one published result; not all experiments were run side by side. ± gives the spread as reported.
Chain of UniProt Q6NT16 (whole entry, unmodified, looked up): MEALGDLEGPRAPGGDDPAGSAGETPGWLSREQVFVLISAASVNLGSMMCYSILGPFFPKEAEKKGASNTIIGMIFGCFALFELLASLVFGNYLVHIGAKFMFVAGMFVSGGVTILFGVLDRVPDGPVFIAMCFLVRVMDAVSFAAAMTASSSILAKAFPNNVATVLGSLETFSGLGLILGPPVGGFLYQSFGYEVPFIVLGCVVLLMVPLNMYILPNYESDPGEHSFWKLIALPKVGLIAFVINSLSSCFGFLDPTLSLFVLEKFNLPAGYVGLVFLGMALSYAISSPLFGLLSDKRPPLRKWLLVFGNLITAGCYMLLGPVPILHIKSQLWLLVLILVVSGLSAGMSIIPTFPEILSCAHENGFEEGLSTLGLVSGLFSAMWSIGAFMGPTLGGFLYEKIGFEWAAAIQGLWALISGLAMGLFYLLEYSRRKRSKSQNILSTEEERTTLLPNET

COc1ccc2nc([S@@+]([O-])Cc3ncc(C)c(OC)c3C)[nH]c2c1 — AUC ratio (human, dried blood spots; 10 mg omeprazole, median, together with: fluvoxamine; baseline: with fluvoxamine over alone): 3
O=C(Nc1nc2cccc(-c3ccc(CN4CCS(=O)(=O)CC4)cc3)n2n1)C1CC1 — treatment-emergent adverse events (item: blood calcium increased; rheumatoid arthritis patients; oral, 200 mg once daily, 4 weeks, any relatedness): 0%
Cn1cc(Nc2nccc(-c3ccc4c(c3)CN(C3COC3)CC[C@H]4NC(=O)c3cn(C(C)(C)C)nn3)n2)cn1 — percent change from baseline (item: CD8+ T cell count; human, clinical trial, whole blood; 50 mg twice daily, follow-up): -5.96%
CCCCCCCCCCCCCCCC(=O)N[C@@H](CCC(=O)NCCCC[C@H](NC(=O)[C@H](C)NC(=O)[C@H](C)NC(=O)[C@H](CCC(N)=O)NC(=O)CNC(=O)[C@H](CCC(=O)O)NC(=O)[C@H](CC(C)C)NC(=O)[C@H](Cc1ccc(O)cc1)NC(=O)[C@H](CO)NC(=O)[C@H](CO)NC(=O)[C@@H](NC(=O)[C@H](CC(=O)O)NC(=O)[C@H](CO)NC(=O)[C@@H](NC(=O)[C@H](Cc1ccccc1)NC(=O)[C@@H](NC(=O)CNC(=O)[C@H](CCC(=O)O)NC(=O)[C@H](C)NC(=O)[C@@H](N)Cc1cnc[nH]1)[C@@H](C)O)[C@@H](C)O)C(C)C)C(=O)N[C@@H](CCC(=O)O)C(=O)N[C@@H](Cc1ccccc1)C(=O)N[C@H](C(=O)N[C@@H](C)C(=O)N[C@@H](Cc1c[nH]c2ccccc12)C(=O)N[C@@H](CC(C)C)C(=O)N[C@H](C(=O)N[C@@H](CCCNC(=N)N)C(=O)NCC(=O)N[C@@H](CCCNC(=N)N)C(=O)NCC(=O)O)C(C)C)[C@@H](C)CC)C(=O)O — AUC(0-peak) (rat Sprague-Dawley male, plasma; subcutaneous, 0.3 mg/kg, first injection, 4 day escalation): 159000 ng·h/mL
CN(CCC#N)C1CCN(C(=O)Cn2cc(NC(=O)c3cnn4cccnc34)c(-c3cc(Cl)ccc3OC(F)F)n2)CC1 — device mouthpiece residue (human; inhalation, 1 mg single dose; baseline: loaded dose): 3.16%
COc1nnc2ccc(N3CCC(c4ccc(OCCN5CCN(C)C(=O)[C@H]5C)cc4)CC3)nn12 — AUC(0-t) (patients, plasma; oral, 15 mg twice daily, multiple dose, monotherapy): 0.317 µM·h
CCCC(=O)OCSc1ccccc1C(=O)NCCn1cc(C(=O)NN2CCN(C)CC2)c(=O)c2cc3c(cc21)OCO3 — TC50 (CEM-SS; cell viability, XTT; RPMI with 10% FBS; 6 days): > 100 µM
CCOc1c([C@H](C)n2nc(C)c3c(N)ncnc32)cc(Cl)c(F)c1[C@@H]1CNC(=O)C1 — Tmax median (patients, monotherapy; oral, 30 mg once daily, cycle 1 day 15): 0.5 h
COc1ccc([C@@H](O)c2cc(-c3ncnc4cc(N5CCOCC5)ccc34)c(F)cc2Cl)nn1 — drug-related lymphocyte count decrease (locally advanced rectal cancer patients; 150 mg, together with: capecitabine and radiotherapy): 17%
COc1cnc2cccc(N3CCc4c(cc(Cn5ccnc5C)cc4-c4cn(C)nc4C(F)(F)F)C3=O)c2c1 — EC50 (HCC78; cell growth, inhibitor; 120 h): > 30 µM
O=C(O)CCN1C(=O)CSC1=S — permeation rate (Bama miniature pig, excised skin; 10 mM, 1 h, 30% ethanol in saline donor): 0.044 ± 0.014 µmol/cm²/h
OCC1=C[C@@H](O)[C@@H]2C=CO[C@@H](O[C@@H]3O[C@H](CO)[C@@H](O)[C@H](O)[C@H]3O)[C@H]12 — accuracy (rat plasma; 200 ng/mL, 2 weeks, -70 °C, post-preparative stability): 95.8%
c1ccc2cc3c(ccc4ccccc43)cc2c1 — literature range factor (polyethylene-water partitioning; PAH compilation; baseline: maximum over minimum K): 6
O=C(O)CCC(=O)O.[2H]C([2H])([2H])Oc1cc(C)c2[nH]ccc2c1CN1CC[C@@H](C2CC2)C[C@H]1c1ccc(C(=O)O)cc1 — subjects with TEAEs (healthy Chinese subjects; 50 to 600 mg, single ascending dose pooled): 41.7%
CNC(=O)c1ccc(-c2cnc3ncc(Cc4ccc5ncccc5c4)n3n2)cc1F — abdominal pain incidence (cancer patients; oral, 600 mg twice daily, all grades RP2D expansion): 16%
O=C(Nc1cnccc1Cl)N1CCN(Cc2ccc3c(c2)OC(F)(F)O3)CC1 — adverse event incidence (item: Dizziness; human healthy young men; 75 mg, multiple dose): 0%
CC(=O)O[C@H]1C(=O)[C@@]2(C)[C@H]([C@H](OC(=O)c3ccccc3)[C@]3(O)C[C@H](OC(=O)[C@H](O)[C@@H](NC(=O)c4ccccc4)c4ccccc4)C(C)=C1C3(C)C)[C@]1(OC(C)=O)CO[C@@H]1C[C@@H]2O — adverse event incidence (item: Nausea; patients with advanced solid tumours; intravenous, dose not given, grade 1 and 2, possibly related to drug): 28%
CC(C)C[C@H](NC(=O)C[C@H](O)[C@H](CC(C)C)NC(=O)[C@H](Cc1c[nH]cn1)NC(=O)CNC(=O)[C@@H](NC(=O)[C@H](C)NC(=O)[C@H](Cc1c[nH]c2ccccc12)NC(=O)[C@H](CCC(N)=O)NC(=O)[C@@H](Cc1ccccc1)NC(=O)COCCOCCNC(=O)CCC(C(=O)O)N1CCN(CC(=O)O)CCN(CC(=O)O)CCN(CC(=O)O)CC1)C(C)C)C(N)=O (stereo partly shown) [lutetium-177 labelled] — tissue uptake (BALB/c nu/nu mice, liver; intravenous, 500 pmol, 1 h, together with: PA 300 µg): 0.34 ± 0.06 %ID/g
Cc1ccc(Sc2ccccc2N2CCNCC2)c(C)c1 — abdominal distension (healthy adult men; oral, 10 mg single, 10 day): 0%
CNc1ccc(-c2nc3ccc(O)cc3s2)cc1 [carbon-11 labelled] — SUV (ex vivo biodistribution; B6SJL mouse, normal, muscle; intravenous, 30 min): 0.232 ± 0.028
O=C(CCCCCCC(=O)Nc1ccc(CC[18F])cc1)NO — tissue uptake (athymic nu/nu male mice, LNCaP xenograft, heart; intravenous, 1 h): 1.6 ± 0.3 %ID/g
Cc1cc([C@H]2C[C@H]3[C@@H](C)SC(N)=N[C@@]3(c3ccc(F)cc3F)CO2)on1 — brain concentration (male 129/SVE mouse, brain; subcutaneous, 50 mg/kg, 7 h): 437 nM
CNCCOC12CC3(C)CC(C)(CC(Cn4ncc(-c5ccc(N6CCc7cccc(C(=O)Nc8nc9ccccc9s8)c7C6)nc5C(=O)O)c4C)(C3)C1)C2 — systemic vascular resistance change (anaesthetised male beagle dogs; intravenous bolus, 0.03 mg/kg, 45 min; baseline: baseline): 10%
COC(=O)C1=CO[C@@H](O[C@@H]2O[C@H](CO)[C@@H](O)[C@H](O)[C@H]2O)[C@@H]2C(CO)=CC[C@H]12 — accuracy (rat plasma; 1000 ng/mL, 2 weeks, -70 °C, post-preparative stability): 90.8%
CC(C)n1c(C2CCNCC2)nc2c([N+](=O)[O-])c(Br)c(Br)cc21 — renal clearance median (human, urine; oral, 150 mg single dose): 9.5 mL/min
Cc1ccc([C@@H]2O[C@H](CO)[C@@H](O)[C@H](O)[C@H]2O)cc1Cc1ccc(-c2ccc(F)cc2)s1 — urinary chloride excretion change (Japanese type 2 diabetes patients; 100 mg, day 2, 24 h urine collection; baseline: baseline): -34.6 mEq
N#Cc1ccc2c(c1)[C@H]1CCCN(C(=O)c3ccc4[nH]cnc4c3)[C@H]1C2 — ACTH level change (human; 10 mg, day 15; baseline: baseline): 1.6 pmol/L
CCc1cc(C(=O)NC)c2nccc(N3CCc4c(cc(Cn5ccnc5)cc4-c4cn(C)nc4C(F)(F)F)C3=O)c2c1 — gastrocnemius weight (Sprague Dawley rats; oral, 50 mg/kg once daily, 7 days): 2.85 ± 0.032 g
Cn1cc(-c2ccc(-c3cncc(Cl)c3N3CCC4(CCNC4=O)CC3)cc2)cn1 — log2 fold change (COLO 205; gene expression, microarray, item: CCRL2 mRNA; concentration not given, 6 h; baseline: untreated cells): 2.86
COc1cc2c3cc1Oc1c(OC)c(OC)cc4c1[C@@H](Cc1ccc(O)c(c1)Oc1ccc(cc1)C[C@@H]3N(C)CC2)N(C)CC4 — remaining compound (mouse plasma, K3EDTA; 1 h, 37 °C): 110%
Cc1cc(-c2nccc3c2ccn3CC(=O)Nc2ccc(-c3cnccn3)cn2)ccn1 — subjects with ventricular tachycardia (human; 15 mg once daily, multiple ascending dose): 0%
C[C@H]1CN(C(=O)CC#N)[C@]12CCN(c1ncnc3[nH]ccc13)C2 — participants with dry skin (human; oral, 12 mg single dose): 0%
COc1ccc2c(c1)CN(C(=O)CCN1CCC(Cc3ccccc3)CC1)CC[S@@+]2[O-] — unbound plasma concentration (beagle dog, female, plasma; intravenous, 8 mg/kg, day 14, 14-day toxicity study): 5170 nM
NC1(C(=O)N[C@@H](CCO)c2ccc(Cl)cc2)CCN(c2nc[nH]c3nccc2-3)CC1 — incidence of Amnesia (metastatic CRPC patients; 400 mg b.i.d., any grade, treatment-related, together with: enzalutamide 160 mg daily): 14.3%
Cc1c(-c2ccc(N3CCc4cccc(C(=O)Nc5nc6ccccc6s5)c4C3)nc2C(=O)O)cnn1CC12CC3(C)CC(C)(C1)CC(OCCNCC[C@H](O)CO)(C3)C2 — systemic vascular resistance change (anaesthetised male beagle dogs; intravenous infusion, 0.3 mg/kg/min, 60 min; baseline: vehicle): -11%
Cc1cc(NC2CCN(C(=O)OC3CCN(C(=O)/C=C/CN(C)C)C3)CC2)n2ncc(C(C)C)c2n1 (stereo not shown) — patients with TEAE (CTCAE v4.0, item: Asthenia; patients with advanced solid tumours; oral, dose not given, all schedules, grade 3 or higher): 0%
CC[C@H](C)[C@@H]1NC(=O)[C@@](C)(NC(=O)[C@H](CCCNC(=N)N)NC(=O)[C@H](CC(C)C)NC(=O)[C@@H](NC(=O)[C@H](CCC(N)=O)NC(=O)[C@H](CC(C)C)NC(C)=O)[C@@H](C)O)CCCC=CCCC[C@@](C)(C(=O)N[C@@H](CC(C)C)C(=O)N[C@@H](Cc2ccc3ccccc3c2)C(N)=O)NC(=O)[C@H](CCCNC(=N)N)NC(=O)[C@H](CCC(N)=O)NC1=O — remaining compound (LC-MS; BALB/c nude mouse, plasma; 2 µM, 0.5 h): 91.7%
O=C(O)CC[C@H](NC(=O)N[C@@H](CCCCNC(=O)[C@H](Cc1ccc2ccccc2c1)NC(=O)CCCCCNC(=O)CN1CCN(CC(=O)O)CCN(CC(=O)O)CCN(CC(=O)O)CC1)C(=O)O)C(=O)O [gallium-68 labelled] — tissue uptake (gamma counting; mouse, PC-3 xenograft, kidney; intravenous, 3.7 MBq, 2 h): 32.4 ± 2.36 %ID/g
CC[C@H](C)C(=O)N1CCC(NC(=O)Nc2ccc(OC(F)(F)F)c(F)c2)CC1 — percent recovery (Caco-2; Caco-2 permeability; 10 µM, 60 min, pH 7.4 apical, 7.4 basolateral, replicate 1; basolateral to apical): 81%
C[C@@H](N)C1CCN(S(=O)(=O)c2cccc3cnccc23)CC1 — TEAE incidence (item: Tachycardia; healthy volunteers; 150 mg, fed): 0%
NCCCNCCCCNCCCN — Kd (MFS-type transporter SLC18B1 (SLC18B1, Homo sapiens, UniProt Q6NT16, Y51A); binder): 296 µM
Cc1cc(Nc2ccc(S(F)(F)(F)(F)F)cc2)n2nc(C(C)(F)F)nc2n1 — Tmax (Plasmodium falciparum; human malaria patients, plasma; oral, 250 mg, median): 6 h
CC[C@H](C)[C@H](NC(=O)CN)C(=O)N[C@@H](CC(C)C)C(=O)N[C@@H](C)C(=O)N[C@@H](C)C(=O)N[C@H](C(=O)N[C@@H](CCCCN)C(=O)N[C@@H](C)C(=O)N[C@H](C(=O)N[C@@H](C)C(=O)N[C@@H](CCCCN)C(=O)N[C@@H](C)C(=O)N[C@@H](C)C(=O)NCC(N)=O)[C@@H](C)CC)[C@@H](C)CC — helix content (circular dichroism; 10 mM SDS; 100 µM): 28%
O=C(c1cccnc1-c1ccncc1)N1CCC(O)(Cc2ccccc2)CC1 — Cmax/dose (healthy Japanese adults, plasma; oral, 600 mg single dose): 5.47 ng/mL/mg
CNC(=O)c1ccc(-c2cnc3ncc(Cc4ccc5ncccc5c4)n3n2)cc1F — AUC(0-t) (human severe hepatic impairment NCI; oral, 200 mg single dose, mean): 5300 ng·h/mL
CC1(C)CCC(CN2CCN(c3ccc(C(=O)NS(=O)(=O)c4ccc(NCC5CCOCC5)c([N+](=O)[O-])c4)c(Oc4cnc5[nH]ccc5c4)c3)CC2)=C(c2ccc(Cl)cc2)C1 — C0/D fold change (patients on VA-based chemotherapy; oral, dose not given, together with: triazole antifungals; baseline: without triazoles): 1

Excerpt of the above:
O=C(O)CCC(=O)O.[2H]C([2H])([2H])Oc1cc(C)c2[nH]ccc2c1CN1CC[C@@H](C2CC2)C[C@H]1c1ccc(C(=O)O)cc1 — subjects with TEAEs (healthy Chinese subjects; 50 to 600 mg, single ascending dose pooled): 41.7%
CNC(=O)c1ccc(-c2cnc3ncc(Cc4ccc5ncccc5c4)n3n2)cc1F — abdominal pain incidence (cancer patients; oral, 600 mg twice daily, all grades RP2D expansion): 16%
O=C(Nc1cnccc1Cl)N1CCN(Cc2ccc3c(c2)OC(F)(F)O3)CC1 — adverse event incidence (item: Dizziness; human healthy young men; 75 mg, multiple dose): 0%
CC(=O)O[C@H]1C(=O)[C@@]2(C)[C@H]([C@H](OC(=O)c3ccccc3)[C@]3(O)C[C@H](OC(=O)[C@H](O)[C@@H](NC(=O)c4ccccc4)c4ccccc4)C(C)=C1C3(C)C)[C@]1(OC(C)=O)CO[C@@H]1C[C@@H]2O — adverse event incidence (item: Nausea; patients with advanced solid tumours; intravenous, dose not given, grade 1 and 2, possibly related to drug): 28%
CC(C)C[C@H](NC(=O)C[C@H](O)[C@H](CC(C)C)NC(=O)[C@H](Cc1c[nH]cn1)NC(=O)CNC(=O)[C@@H](NC(=O)[C@H](C)NC(=O)[C@H](Cc1c[nH]c2ccccc12)NC(=O)[C@H](CCC(N)=O)NC(=O)[C@@H](Cc1ccccc1)NC(=O)COCCOCCNC(=O)CCC(C(=O)O)N1CCN(CC(=O)O)CCN(CC(=O)O)CCN(CC(=O)O)CC1)C(C)C)C(N)=O (stereo partly shown) [lutetium-177 labelled] — tissue uptake (BALB/c nu/nu mice, liver; intravenous, 500 pmol, 1 h, together with: PA 300 µg): 0.34 ± 0.06 %ID/g
Cc1ccc(Sc2ccccc2N2CCNCC2)c(C)c1 — abdominal distension (healthy adult men; oral, 10 mg single, 10 day): 0%
